Assay results pooled from the literature.
Every numbered part comes from another study and shows a few of its results, in no order. “And” joins repeats or separate records; there may be more than shown. Changes are numbered by the printed parent chain.
Sequence of UniProt P10721 (whole entry, unmodified, looked up): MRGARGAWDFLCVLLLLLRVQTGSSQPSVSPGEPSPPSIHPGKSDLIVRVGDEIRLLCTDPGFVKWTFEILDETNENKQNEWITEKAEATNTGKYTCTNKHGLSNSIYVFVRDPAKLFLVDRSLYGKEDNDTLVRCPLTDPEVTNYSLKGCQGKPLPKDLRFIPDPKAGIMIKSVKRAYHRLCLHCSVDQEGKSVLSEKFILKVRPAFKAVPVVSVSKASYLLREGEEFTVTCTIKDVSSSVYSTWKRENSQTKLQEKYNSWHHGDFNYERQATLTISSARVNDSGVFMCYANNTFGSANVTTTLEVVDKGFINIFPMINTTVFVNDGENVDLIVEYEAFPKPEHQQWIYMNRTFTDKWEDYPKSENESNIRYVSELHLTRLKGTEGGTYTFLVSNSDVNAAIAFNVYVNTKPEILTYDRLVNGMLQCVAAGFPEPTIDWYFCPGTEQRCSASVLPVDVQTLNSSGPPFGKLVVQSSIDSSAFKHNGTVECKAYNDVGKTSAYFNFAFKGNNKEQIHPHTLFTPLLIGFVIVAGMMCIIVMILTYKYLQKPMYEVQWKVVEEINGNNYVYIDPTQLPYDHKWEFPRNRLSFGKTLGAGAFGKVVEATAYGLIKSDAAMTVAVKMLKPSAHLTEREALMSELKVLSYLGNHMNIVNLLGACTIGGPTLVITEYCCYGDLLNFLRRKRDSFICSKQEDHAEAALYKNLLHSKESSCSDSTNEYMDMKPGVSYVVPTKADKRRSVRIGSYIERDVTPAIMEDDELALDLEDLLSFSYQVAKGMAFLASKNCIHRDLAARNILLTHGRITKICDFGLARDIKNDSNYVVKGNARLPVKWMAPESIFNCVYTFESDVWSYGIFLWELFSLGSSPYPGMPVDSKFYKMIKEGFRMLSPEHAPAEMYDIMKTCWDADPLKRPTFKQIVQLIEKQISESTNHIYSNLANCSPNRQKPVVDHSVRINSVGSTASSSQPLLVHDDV
Sequence of UniProt Q99558 (whole entry, looked up): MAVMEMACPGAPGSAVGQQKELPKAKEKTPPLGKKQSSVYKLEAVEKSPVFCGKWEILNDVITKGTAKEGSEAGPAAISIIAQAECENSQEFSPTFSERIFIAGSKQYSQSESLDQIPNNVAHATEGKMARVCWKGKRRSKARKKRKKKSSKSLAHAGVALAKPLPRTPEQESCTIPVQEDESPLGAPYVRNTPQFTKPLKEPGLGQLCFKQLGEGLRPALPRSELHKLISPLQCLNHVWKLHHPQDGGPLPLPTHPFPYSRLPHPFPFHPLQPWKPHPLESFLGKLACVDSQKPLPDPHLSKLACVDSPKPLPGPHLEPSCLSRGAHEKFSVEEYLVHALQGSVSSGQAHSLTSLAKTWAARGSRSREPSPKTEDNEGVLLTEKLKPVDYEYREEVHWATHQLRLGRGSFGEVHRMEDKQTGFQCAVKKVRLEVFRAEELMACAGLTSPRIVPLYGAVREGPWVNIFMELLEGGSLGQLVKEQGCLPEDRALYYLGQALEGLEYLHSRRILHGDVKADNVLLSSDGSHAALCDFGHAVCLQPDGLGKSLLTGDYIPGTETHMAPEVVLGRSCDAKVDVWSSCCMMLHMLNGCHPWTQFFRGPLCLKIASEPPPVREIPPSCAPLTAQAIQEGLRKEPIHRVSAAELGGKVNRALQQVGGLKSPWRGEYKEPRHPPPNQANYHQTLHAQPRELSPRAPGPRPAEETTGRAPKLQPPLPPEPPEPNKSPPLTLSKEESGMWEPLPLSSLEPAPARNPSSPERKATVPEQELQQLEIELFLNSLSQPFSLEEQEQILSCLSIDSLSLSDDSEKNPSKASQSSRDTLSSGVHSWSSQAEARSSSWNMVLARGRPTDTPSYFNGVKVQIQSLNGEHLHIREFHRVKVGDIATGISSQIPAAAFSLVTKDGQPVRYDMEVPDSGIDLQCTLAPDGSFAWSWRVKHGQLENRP
Sequence of UniProt Q9Y2I7 (whole entry, looked up): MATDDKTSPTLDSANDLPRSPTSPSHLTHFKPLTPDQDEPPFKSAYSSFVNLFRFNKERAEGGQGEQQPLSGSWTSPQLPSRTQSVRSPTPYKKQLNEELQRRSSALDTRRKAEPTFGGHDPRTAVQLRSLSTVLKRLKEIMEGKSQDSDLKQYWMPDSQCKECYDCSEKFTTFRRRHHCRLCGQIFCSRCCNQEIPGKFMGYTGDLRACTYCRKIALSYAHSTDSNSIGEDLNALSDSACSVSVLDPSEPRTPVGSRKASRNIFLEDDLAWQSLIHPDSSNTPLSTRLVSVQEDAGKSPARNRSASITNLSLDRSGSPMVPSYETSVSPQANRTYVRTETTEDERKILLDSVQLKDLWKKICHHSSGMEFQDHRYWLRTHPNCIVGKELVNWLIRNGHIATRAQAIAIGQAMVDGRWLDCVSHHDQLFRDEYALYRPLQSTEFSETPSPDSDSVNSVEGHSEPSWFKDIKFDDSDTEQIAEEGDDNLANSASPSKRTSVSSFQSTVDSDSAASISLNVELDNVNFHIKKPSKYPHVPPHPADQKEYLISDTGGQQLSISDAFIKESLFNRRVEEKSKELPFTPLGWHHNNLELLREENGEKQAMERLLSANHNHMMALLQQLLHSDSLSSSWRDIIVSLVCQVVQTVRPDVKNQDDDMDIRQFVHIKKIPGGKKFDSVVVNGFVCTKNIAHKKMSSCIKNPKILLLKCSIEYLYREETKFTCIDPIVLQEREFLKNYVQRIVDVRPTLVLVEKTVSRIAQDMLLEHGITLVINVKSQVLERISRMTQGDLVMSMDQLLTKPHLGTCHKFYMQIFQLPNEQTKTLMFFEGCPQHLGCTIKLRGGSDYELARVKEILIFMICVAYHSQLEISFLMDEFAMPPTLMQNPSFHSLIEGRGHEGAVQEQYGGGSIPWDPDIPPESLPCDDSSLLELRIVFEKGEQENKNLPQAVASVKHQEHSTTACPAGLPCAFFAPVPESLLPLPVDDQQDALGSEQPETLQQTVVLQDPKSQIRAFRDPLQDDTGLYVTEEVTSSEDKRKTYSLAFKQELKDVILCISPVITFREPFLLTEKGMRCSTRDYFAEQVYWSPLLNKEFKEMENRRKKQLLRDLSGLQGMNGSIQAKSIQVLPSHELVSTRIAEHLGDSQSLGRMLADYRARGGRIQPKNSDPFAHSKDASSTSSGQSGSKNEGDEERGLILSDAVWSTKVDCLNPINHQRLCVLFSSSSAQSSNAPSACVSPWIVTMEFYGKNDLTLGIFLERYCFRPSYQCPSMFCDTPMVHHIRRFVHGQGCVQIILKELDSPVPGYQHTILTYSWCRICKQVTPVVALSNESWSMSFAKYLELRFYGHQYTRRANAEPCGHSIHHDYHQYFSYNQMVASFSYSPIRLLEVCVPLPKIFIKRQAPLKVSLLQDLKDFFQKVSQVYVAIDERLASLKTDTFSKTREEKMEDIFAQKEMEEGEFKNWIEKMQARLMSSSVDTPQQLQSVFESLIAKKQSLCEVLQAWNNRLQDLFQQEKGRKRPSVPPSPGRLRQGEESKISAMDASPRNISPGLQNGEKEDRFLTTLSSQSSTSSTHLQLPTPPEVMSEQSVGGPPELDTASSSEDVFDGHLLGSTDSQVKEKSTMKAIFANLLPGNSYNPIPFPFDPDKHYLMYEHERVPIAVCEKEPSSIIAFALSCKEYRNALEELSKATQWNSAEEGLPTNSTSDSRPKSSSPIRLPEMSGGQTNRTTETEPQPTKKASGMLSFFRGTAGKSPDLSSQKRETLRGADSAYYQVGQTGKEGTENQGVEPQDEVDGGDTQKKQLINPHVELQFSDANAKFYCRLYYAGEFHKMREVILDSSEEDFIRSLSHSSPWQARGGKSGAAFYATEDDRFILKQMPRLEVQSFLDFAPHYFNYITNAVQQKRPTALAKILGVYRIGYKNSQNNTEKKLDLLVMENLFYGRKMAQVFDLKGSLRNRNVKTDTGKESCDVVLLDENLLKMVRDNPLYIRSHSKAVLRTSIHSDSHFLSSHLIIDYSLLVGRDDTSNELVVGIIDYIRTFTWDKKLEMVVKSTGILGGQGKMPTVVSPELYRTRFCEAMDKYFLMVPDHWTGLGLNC
Sequence of UniProt Q13177 (whole entry, looked up): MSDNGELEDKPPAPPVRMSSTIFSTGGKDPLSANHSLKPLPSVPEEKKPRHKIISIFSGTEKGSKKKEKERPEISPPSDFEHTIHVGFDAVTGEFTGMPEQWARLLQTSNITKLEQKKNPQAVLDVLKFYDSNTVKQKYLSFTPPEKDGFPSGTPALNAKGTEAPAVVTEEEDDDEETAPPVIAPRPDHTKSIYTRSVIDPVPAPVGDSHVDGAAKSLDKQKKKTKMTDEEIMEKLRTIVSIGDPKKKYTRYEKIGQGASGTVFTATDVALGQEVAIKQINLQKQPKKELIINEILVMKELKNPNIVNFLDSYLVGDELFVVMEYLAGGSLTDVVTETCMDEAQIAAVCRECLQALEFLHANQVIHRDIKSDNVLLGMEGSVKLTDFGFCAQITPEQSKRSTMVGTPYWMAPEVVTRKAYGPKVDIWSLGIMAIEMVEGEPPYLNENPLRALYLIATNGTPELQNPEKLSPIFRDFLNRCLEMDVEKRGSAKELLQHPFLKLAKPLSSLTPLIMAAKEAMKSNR
Sequence of UniProt P51817 (whole entry, looked up): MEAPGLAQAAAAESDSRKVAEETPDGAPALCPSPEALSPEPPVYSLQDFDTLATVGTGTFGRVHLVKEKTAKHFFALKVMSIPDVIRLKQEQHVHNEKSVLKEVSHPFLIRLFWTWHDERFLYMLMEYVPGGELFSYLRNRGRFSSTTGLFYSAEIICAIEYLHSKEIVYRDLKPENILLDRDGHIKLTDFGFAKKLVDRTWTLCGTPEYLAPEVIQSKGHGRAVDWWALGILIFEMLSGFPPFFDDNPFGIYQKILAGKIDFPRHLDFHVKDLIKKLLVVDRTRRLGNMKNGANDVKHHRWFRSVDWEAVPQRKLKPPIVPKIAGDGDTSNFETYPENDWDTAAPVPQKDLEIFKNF

Study 1
Target: RNA binding protein fox-1 homolog 2, RRM domain, GST-SBP tag (RBFOX2, Homo sapiens, UniProt O43251-10, residues 100-194)
Technique: RNA Bind-n-Seq
Molecule type: RNA
Medium: in vitro
Tested at: 365 nM
Notes: natural RNA segment, single round, ends assumed
Reference: no-protein control
Direction: higher = stronger binding
Endpoint: RBNS enrichment (R)
Residues (chain): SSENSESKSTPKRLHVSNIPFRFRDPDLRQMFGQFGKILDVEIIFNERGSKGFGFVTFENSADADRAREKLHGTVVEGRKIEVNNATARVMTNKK
Oligonucleotide = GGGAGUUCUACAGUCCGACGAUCCAGCCAGCUGGCUGGACACUCGAGAAAGACGGGGAAGUAAGCUACAGAAAGAUAGUCUUCAAAAACAGGUGUUUGAGAGUGAAUACUCUGUAGAAUUGUUAGUGGGGUGUUGGAAUUCUCGGGUGCCAA; value = 0.634
Oligonucleotide = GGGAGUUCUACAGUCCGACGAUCACCUGAGGUGCAUAGCAUAUUCCCACAUUCCAUUUGGUAGCAAUAUGCGGUCUGAAUGCAUGCAUUCAUGAGUCCAUGUGGCCAAGUCAGCCUGUGUGCUACUGAACUGUUGGAAUUCUCGGGUGCCAA; value = 1.37
Oligonucleotide = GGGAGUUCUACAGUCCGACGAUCCUGAGGACACUGGUGGCUGUGCUAUGUGUGGCCAUCCUCCAUGUCCCGUCCCUGUAGCUGCUCUGUUUAGACAGCGGACAGACGCUCACGCCCAGGGGAUGUCCUCACGCUGGAAUUCUCGGGUGCCAA; value = 0.527
Oligonucleotide = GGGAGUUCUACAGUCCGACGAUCCGCCUCUGACACUUUUGGAGGUGAUAUGAUACAGCCCCCGACCAAACCAGGCUUUGUGGGGGGUGAGAGAAUACAGACACAAGUGGCAGGAUUCAGAUGGAAGCUUCGCAUGGAAUUCUCGGGUGCCAA; value = 0.498
Oligonucleotide = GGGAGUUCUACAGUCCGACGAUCAAAGAAUGAUAGGCUUGUCAGAGCCUAUAGCCAGAACUCAGAAAAAAUUCAAAUGCACUUAUGUUCUCAUUCUAUGGCCAUUGUGUUGCCUCUGUUACUGUUUGUAUUGAUGGAAUUCUCGGGUGCCAA; value = 0.699
Oligonucleotide = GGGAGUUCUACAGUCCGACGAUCGACUCAGAGGCCACACUGAUUUGUGCUGCAUCCAGACCCCCGUCUCCCUCCCCACCACCAUUCCUUGCUUCCUGCCCAGCCCGCUUCACUUCUCCCGGGACCAUCCUGAUUGGAAUUCUCGGGUGCCAA; value = 2.73
Oligonucleotide = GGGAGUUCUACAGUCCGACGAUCCUUCCUUUUUCCUGGGAUUCUUUAUCCUAAACCCUGCAUAUCUGAGAACCGCCUUUCUCAUAUUUCCUGAAUGGGGUUUGACUCUAUUUGGGGAAAACAUUGCUUUUGGUUGGAAUUCUCGGGUGCCAA; value = 0.293
Oligonucleotide = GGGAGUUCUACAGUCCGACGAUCAUGAUUAAUAUAAAUUAGUAUACUUUGGCUCUGUGGAAAAGUGUAAAUUGUGGUUUUAGAAACCAACUCUUGAUAGUUGUACUGUGAUUAUAAAAAACAAUUGUUAAAUAUGGAAUUCUCGGGUGCCAA; value = 0.878

Study 2
Compound: Cc1nccc(COC(=O)N2C[C@@H]3[C@@H](CNC(=O)c4ccc5[nH]nnc5c4)[C@@H]3C2)n1
Effect on: cell-free assay
Technique: competition with immobilised ligand
Tested at: 1 µM
Endpoint: remaining binding
target = TNIK (Homo sapiens, UniProt Q9UKE5); value = 100%
target = TNK1 (Homo sapiens, UniProt Q13470); value = 66%
target = KIT (Homo sapiens, UniProt P10721); value = 89%
target = CIT (Homo sapiens, UniProt O14578); value = 100%
target = PIKFYVE (Homo sapiens, UniProt Q9Y2I7); value = 100%
target = ROCK1 (Homo sapiens, UniProt Q13464); value = 71%
target = KIT (Homo sapiens, UniProt P10721, L576P); value = 89%
target = SRPK2 (Homo sapiens, UniProt P78362); value = 77%
target = DYRK1A (Homo sapiens, UniProt Q13627); value = 81%
target = MYLK (Homo sapiens, UniProt Q15746); value = 100%
target = EGFR (Homo sapiens, UniProt P00533, del752-759); value = 100%
target = SNRK (Homo sapiens, UniProt Q9NRH2); value = 98%
target = MAP3K14 (Homo sapiens, UniProt Q99558); value = 66%
target = NEK10 (Homo sapiens, UniProt Q6ZWH5); value = 92%
target = PAK2 (Homo sapiens, UniProt Q13177); value = 100%
target = KIT (Homo sapiens, UniProt P10721, A829P); value = 94%

Study 3
Target: CCND1, cyclin fold, Cln2 fusion (human)
Technique: yeast growth competition, sequencing
Medium: yeast
Notes: weak parent motif
Reference: not given
Direction: higher = stronger binding
Endpoint: normalised enrichment score
Starting sequence: E2F1 docking peptide (human); PPVKRRLDLETDH
Change = D12K; value = 0.389
Change = D12A; value = 0.759
Change = D8I; value = 1.03
Change = D12C; value = 0.881
Change = H13L; value = 0.624
Change = V3W; value = -0.131
Change = H13K; value = 1.59
Change = H13W; value = 0.615

Single results of other studies
SMILES = Nc1ccc(S(=O)(=O)c2ccc(N)cc2)cc1; target or system = Sarcocystis neurona; test = parasite growth; conditions = 10 µM, secondary screen; endpoint = inhibition; value = -23.7%
SMILES = Cc1ccc(NC(=O)c2ccnc(C(F)(F)F)c2)cc1-c1cc(OCCO)nc(N2CCOCC2)c1; target or system = PRKX (Homo sapiens, UniProt P51817); test = binding; conditions = 1 µM; endpoint = remaining binding; value = 100%
SMILES = CC1=C(/C=C/C(C)=C/C=C/C(C)=C/C(=O)O)C(C)(C)CCC1; system = NSG mouse, HuT78 xenograft; conditions = dose not given, end of study; endpoint = tumour weight; value = 0.628 g and 0.631 g and 0.689 g and 0.735 g
SMILES = COc1cc(C(=O)OCCCN2CCCN(CCCOC(=O)c3cc(OC)c(OC)c(OC)c3)CC2)cc(OC)c1OC; system = female mouse, formalin pain; conditions = intrathecal, 100 nmol, 0 to 10 min; endpoint = licking duration; value = 199 s and 233 s and 260 s and 221 s
SMILES = CC12CC3CC(C)(C1)CC(N)(C3)C2; target or system = A-375; conditions = 100 µM, 36 h; endpoint = viability; value = 86.6%
SMILES = CN1CCC(Nc2ccn(-c3ncccc3C(F)(F)F)n2)CC1; system = human, microsomes or S9; conditions = 2 µM, 0.5 h; endpoint = remaining compound; value = 91.5%
SMILES = CC(C)n1cnc(-c2ccc(F)cc2)c1-c1ncc(C(=O)Nc2ccc(N3CCN(C)CC3)cc2)[nH]1; system = human, idiopathic pulmonary fibrosis; conditions = 30 mg once daily, trial, treatment-emergent; endpoint = grade 5 soft tissue infection; value = 0%

Excerpt of the above (single results of other studies):
SMILES = COc1cc(C(=O)OCCCN2CCCN(CCCOC(=O)c3cc(OC)c(OC)c(OC)c3)CC2)cc(OC)c1OC; system = female mouse, formalin pain; conditions = intrathecal, 100 nmol, 0 to 10 min; endpoint = licking duration; value = 199 s and 233 s and 260 s and 221 s
SMILES = CC12CC3CC(C)(C1)CC(N)(C3)C2; target or system = A-375; conditions = 100 µM, 36 h; endpoint = viability; value = 86.6%
SMILES = CN1CCC(Nc2ccn(-c3ncccc3C(F)(F)F)n2)CC1; system = human, microsomes or S9; conditions = 2 µM, 0.5 h; endpoint = remaining compound; value = 91.5%
SMILES = CC(C)n1cnc(-c2ccc(F)cc2)c1-c1ncc(C(=O)Nc2ccc(N3CCN(C)CC3)cc2)[nH]1; system = human, idiopathic pulmonary fibrosis; conditions = 30 mg once daily, trial, treatment-emergent; endpoint = grade 5 soft tissue infection; value = 0%
